Experimental data gathered from unrelated publications.
Compare with care: the assays were run in different laboratories. “And” joins repeats or separate records; there may be more than shown. Numbers after ± are the reported error.
PSMB7 in 20S proteasome: Proteasome subunit beta type-7, in 20S proteasome (PSMB7, Homo sapiens, UniProt Q99436)
Chain of UniProt Q99436 (whole entry, looked up): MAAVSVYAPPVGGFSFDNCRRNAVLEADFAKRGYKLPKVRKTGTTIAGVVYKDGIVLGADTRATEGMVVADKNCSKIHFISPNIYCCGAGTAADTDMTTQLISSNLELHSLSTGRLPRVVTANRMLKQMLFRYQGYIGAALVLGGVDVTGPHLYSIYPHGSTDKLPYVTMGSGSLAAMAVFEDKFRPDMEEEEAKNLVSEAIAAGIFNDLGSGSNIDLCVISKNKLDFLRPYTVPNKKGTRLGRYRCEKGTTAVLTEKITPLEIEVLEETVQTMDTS
FGFR2: Fibroblast growth factor receptor 2 (FGFR2, Homo sapiens, UniProt P21802)
Chain of UniProt P21802 (whole entry, looked up): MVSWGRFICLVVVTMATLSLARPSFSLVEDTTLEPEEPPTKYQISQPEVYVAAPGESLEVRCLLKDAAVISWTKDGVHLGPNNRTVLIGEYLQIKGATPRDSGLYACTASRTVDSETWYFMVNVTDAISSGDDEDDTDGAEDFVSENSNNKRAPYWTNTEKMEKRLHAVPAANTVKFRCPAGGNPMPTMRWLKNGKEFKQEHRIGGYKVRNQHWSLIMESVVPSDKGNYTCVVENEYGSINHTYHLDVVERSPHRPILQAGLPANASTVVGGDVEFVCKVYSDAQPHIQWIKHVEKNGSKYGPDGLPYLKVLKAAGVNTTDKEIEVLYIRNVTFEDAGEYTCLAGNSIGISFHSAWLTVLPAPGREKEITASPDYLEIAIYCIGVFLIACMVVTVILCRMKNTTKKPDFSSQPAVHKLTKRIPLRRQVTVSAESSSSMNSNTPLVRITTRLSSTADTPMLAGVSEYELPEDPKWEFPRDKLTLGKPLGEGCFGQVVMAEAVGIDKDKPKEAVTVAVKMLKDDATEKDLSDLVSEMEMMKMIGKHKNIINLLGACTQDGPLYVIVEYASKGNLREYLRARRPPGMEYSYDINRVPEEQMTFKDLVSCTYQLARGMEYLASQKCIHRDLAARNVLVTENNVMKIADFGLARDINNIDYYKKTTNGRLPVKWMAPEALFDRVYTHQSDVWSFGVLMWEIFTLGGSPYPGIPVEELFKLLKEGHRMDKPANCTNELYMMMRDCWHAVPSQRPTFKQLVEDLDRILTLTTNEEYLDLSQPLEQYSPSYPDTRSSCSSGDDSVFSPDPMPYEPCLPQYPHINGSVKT
Seed linoleate 13S-lipoxygenase-1: Seed linoleate 13S-lipoxygenase-1 (Glycine max, UniProt P08170)
Chain of UniProt P08170 (whole entry, looked up): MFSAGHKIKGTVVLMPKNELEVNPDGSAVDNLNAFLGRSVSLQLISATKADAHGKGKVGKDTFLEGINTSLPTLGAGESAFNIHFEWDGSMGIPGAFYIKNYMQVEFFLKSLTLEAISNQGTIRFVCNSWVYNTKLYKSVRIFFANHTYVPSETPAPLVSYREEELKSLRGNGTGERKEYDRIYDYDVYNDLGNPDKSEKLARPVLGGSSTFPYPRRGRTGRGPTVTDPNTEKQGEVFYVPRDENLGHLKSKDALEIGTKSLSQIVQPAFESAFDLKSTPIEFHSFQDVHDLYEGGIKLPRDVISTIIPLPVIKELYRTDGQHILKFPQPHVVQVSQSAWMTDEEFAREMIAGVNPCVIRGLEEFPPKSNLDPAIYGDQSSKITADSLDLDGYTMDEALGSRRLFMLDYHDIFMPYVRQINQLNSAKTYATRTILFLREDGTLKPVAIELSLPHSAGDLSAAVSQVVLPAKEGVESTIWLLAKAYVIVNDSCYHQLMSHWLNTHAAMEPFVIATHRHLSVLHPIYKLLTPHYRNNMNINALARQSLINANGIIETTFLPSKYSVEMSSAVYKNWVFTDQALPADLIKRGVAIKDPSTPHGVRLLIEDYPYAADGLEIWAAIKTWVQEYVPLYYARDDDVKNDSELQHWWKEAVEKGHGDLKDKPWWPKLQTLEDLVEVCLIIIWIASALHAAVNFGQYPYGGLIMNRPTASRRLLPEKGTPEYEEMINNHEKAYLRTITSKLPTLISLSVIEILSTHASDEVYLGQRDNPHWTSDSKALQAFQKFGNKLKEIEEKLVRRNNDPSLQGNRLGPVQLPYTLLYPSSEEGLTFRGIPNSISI
Chain of UniProt P28907 (whole entry, looked up): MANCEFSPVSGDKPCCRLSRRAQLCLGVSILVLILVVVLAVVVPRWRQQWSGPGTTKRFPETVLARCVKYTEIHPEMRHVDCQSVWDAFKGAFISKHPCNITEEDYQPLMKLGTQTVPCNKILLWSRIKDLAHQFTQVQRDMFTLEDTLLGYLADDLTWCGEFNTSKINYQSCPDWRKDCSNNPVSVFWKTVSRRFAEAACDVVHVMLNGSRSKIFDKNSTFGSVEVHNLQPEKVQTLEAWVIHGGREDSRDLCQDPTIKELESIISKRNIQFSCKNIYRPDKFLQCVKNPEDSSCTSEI
Chain of UniProt Q9Y2J8 (whole entry, looked up): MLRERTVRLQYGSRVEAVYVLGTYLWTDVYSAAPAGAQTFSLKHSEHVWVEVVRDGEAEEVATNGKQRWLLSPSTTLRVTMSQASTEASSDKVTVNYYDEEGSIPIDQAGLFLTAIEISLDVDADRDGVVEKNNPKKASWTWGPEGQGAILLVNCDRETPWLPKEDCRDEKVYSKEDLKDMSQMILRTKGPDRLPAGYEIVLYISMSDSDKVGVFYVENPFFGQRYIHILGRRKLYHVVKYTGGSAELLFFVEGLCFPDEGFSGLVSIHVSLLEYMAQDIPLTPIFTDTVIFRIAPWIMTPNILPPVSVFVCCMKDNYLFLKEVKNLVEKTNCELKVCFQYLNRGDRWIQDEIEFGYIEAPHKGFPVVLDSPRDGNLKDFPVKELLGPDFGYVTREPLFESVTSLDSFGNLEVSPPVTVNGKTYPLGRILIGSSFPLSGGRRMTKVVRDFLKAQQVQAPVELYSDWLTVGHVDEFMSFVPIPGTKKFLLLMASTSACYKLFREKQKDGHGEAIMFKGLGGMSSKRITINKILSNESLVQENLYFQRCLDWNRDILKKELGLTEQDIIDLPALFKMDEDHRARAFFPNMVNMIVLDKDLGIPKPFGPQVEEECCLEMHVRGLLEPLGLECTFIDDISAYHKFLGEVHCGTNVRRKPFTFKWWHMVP
Chain of UniProt Q96KS0 (whole entry, looked up): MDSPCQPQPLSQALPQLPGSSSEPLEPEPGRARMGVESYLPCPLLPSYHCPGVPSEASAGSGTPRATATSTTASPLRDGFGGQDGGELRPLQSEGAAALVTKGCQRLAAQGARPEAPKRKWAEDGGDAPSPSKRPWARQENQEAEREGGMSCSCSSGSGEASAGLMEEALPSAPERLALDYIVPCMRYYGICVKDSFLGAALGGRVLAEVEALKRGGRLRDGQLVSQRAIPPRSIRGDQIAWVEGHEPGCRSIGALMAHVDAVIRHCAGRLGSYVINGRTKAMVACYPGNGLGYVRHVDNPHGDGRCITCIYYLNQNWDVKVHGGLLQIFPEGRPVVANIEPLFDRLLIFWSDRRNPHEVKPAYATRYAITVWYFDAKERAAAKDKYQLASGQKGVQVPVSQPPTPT
Chain of UniProt P51812 (whole entry, unmodified, looked up): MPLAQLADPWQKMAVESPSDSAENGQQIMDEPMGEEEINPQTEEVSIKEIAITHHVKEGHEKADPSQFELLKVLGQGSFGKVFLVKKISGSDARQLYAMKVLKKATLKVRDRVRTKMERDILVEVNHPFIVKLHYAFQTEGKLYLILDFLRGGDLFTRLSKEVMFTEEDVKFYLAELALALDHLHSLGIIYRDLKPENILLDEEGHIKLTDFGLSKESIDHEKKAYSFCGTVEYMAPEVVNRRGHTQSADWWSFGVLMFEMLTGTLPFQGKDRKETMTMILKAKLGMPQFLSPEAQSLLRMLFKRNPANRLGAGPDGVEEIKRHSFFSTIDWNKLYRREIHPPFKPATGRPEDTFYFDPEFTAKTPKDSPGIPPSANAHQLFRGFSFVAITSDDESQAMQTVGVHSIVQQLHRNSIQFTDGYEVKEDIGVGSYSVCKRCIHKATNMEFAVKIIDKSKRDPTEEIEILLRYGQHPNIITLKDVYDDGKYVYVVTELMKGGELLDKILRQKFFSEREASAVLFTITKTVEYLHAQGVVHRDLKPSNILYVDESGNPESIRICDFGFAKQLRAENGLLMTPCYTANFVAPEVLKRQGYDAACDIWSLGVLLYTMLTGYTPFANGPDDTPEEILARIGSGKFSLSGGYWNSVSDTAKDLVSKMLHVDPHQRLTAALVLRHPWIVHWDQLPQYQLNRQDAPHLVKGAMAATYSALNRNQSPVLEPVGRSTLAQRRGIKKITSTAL
Chain of UniProt P24280 (whole entry, looked up): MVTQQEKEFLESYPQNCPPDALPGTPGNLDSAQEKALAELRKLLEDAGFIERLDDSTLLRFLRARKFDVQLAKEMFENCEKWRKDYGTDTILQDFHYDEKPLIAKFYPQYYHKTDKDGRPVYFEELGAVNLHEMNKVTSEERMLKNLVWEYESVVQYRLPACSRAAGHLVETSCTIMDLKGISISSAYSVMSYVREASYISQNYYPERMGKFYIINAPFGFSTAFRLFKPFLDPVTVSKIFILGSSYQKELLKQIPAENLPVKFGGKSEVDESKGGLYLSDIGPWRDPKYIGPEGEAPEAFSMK
Chain of UniProt Q96GD4 (whole entry, looked up): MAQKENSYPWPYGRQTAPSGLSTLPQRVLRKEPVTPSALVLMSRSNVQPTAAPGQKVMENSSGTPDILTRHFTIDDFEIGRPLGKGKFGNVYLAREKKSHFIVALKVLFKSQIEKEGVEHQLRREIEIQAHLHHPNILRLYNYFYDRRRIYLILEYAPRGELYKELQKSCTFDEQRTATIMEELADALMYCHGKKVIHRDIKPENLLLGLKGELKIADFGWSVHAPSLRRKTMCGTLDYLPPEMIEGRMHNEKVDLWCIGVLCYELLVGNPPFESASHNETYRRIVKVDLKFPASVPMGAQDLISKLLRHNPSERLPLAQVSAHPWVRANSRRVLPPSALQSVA

SMILES	target	test	test system	setting	IC50
C=C(NC(=O)C(=C)NC(=O)c1csc(C2=NC3c4csc(n4)C4NC(=O)c5csc(n5)C(C(C)(O)C(C)O)NC(=O)C5CSC(=N5)C(=CC)NC(=O)C(C)NC(=O)c5csc(n5)C3(CC2)NC(=O)C(C)NC(=O)C(=C)NC(=O)C(C)NC(=O)C(C(C)CC)NC2C=Cc3c(C(C)O)cc(nc3C2O)C(=O)OC4C)n1)C(N)=O (stereo not drawn)	PSMB7 in 20S proteasome	trypsin-like activity, inhibitor	purified 20S proteasome	15 min preincubation, 37 °C, together with: Boc-Leu-Arg-Arg-AMC substrate	0.71 ± 0.07 µM
COc1ccc(C(=O)/C=C(\O)C(F)(F)C(F)(F)F)cn1	Formate-nitrite transporter (FNT, Plasmodium ovale, UniProt A0A1D3TGZ2)	L-lactate transport, inhibitor	yeast	pH 6.8, together with: 14C-L-lactate 1 mM	0.64 ± 0.12 µM
Clc1ccc(NCc2cn(-c3ccccc3)nc2-c2ccc(OCc3ccccc3)cc2)cc1	PTGS1 (Homo sapiens, UniProt P23219)	enzyme activity, inhibitor, absorbance			205 µM
COc1ccc(/C=C2/C(=O)Cc3c2[nH]c2ccccc32)cc1	Aurora kinase B (AURKB, Homo sapiens, UniProt Q96GD4)	enzyme activity, inhibitor, radiometric			1.6 µM
C=C(C)C(=O)Nc1ccc(-c2c(-c3ccc(Oc4cccc(C)n4)cc3)c3c(N)ncnc3n2C)cc1	FGFR2	Caliper mobility shift		30 min preincubation, together with: 100 µM ATP	0.004 µM
N#C/C(=C\c1ccc(C(N)=O)cc1)C(N)=O	Ribosomal protein S6 kinase alpha-3, C-terminal kinase domain (RPS6KA3, Homo sapiens, UniProt P51812, T493M)	kinase activity, inhibitor		together with: 0.1 mM ATP	5.2 µM
N=C(CCl)NCCC[C@H](NC(=O)c1ccc(/N=N/c2ccccc2)cc1)c1nc2ccccc2[nH]1	PADI2 (Homo sapiens, UniProt Q9Y2J8)	inhibitor, competitive ABPP		2 h, 37 °C, 30 min preincubation, together with: RFA probe 2 µM	> 100 µM
COCCCN1CCc2c(Cc3ccc(Cl)cc3)[nH]c3c(OC(F)F)ccc(c23)C1=O	PDE9A (Homo sapiens, UniProt O76083)	enzyme activity, inhibitor			> 10 µM
COc1ccc2oc(-c3cc(-c4cnn(C5CCNCC5)c4)cnc3N)nc2c1	JAK2 (Homo sapiens, UniProt O60674)	enzyme activity, inhibitor, TR-FRET			0.25 µM
COc1cc(-c2nc3ccc(C(=O)NCCCN4CCN(C5CCCCC5)CC4)cc3n2C2CCC2)cc(OC)c1OC	ACVR1 (Homo sapiens, UniProt Q04771, R206H)	binding, NanoBRET	HEK293		0.85 µM
CNC(=O)c1cc(C)ccc1NC(=O)c1ccc(-c2cc(O)ccc2C)c(C)c1	YES1 (Homo sapiens, UniProt P07947)	target engagement, NanoBRET	intact cells		> 50 µM
CCc1ccccc1NC(=O)C(C)Sc1nnc(C2CCN(C(=O)Nc3ccccc3)CC2)n1CC (stereo not drawn)	Seed linoleate 13S-lipoxygenase-1	enzyme activity, inhibitor			< 16 µM and 15.5 µM
NCCCCCO[C@H]1O[C@H](COS(=O)(=O)O)[C@@H](O[C@@H]2O[C@@H](C(=O)O)[C@@H](O[C@H]3O[C@H](COS(=O)(=O)O)[C@@H](O[C@@H]4O[C@@H](C(=O)O)[C@@H](O[C@H]5O[C@H](COS(=O)(=O)O)[C@@H](O[C@@H]6O[C@@H](C(=O)O)[C@@H](O[C@H]7O[C@H](COS(=O)(=O)O)[C@@H](O[C@@H]8O[C@@H](C(=O)O)[C@@H](O)[C@H](O)[C@H]8OS(=O)(=O)O)[C@H](O)[C@H]7NS(=O)(=O)O)[C@H](O)[C@H]6OS(=O)(=O)O)[C@H](O)[C@H]5NS(=O)(=O)O)[C@H](O)[C@H]4OS(=O)(=O)O)[C@H](O)[C@H]3NS(=O)(=O)O)[C@H](O)[C@H]2OS(=O)(=O)O)[C@H](O)[C@H]1NS(=O)(=O)O	F10 (Bos taurus, UniProt P00743)	enzyme activity, inhibitor, absorbance			52 µg/mL
C=C(NC(=O)C(=C)NC(=O)c1csc(C2=NC3c4csc(n4)C4NC(=O)c5csc(n5)C(C(C)(O)C(C)O)NC(=O)C5CSC(=N5)C(=CC)NC(=O)C(C(C)O)NC(=O)c5csc(n5)C3(CC2)NC(=O)C(C)NC(=O)C(=C)NC(=O)C(=CC)NC(=O)C(C(C)CC)NC2C=Cc3c(C(C)O)cc(nc3C2O)C(=O)OC4C)n1)C(N)=O (stereo not drawn)	PSMB7 in 20S proteasome	trypsin-like activity, inhibitor	purified human 20S proteasome	37 °C, 15 min preincubation, together with: Boc-Leu-Arg-Arg-AMC	1.3 ± 0.2 µM
C/C=C/C(=O)Nc1ccc2nc(NCCCCCN(C)C)nc(NCCCCCCN(C)C)c2c1	M-phase phosphoprotein 8, chromodomain (Homo sapiens, UniProt Q99549)	methyl-lysine binding, TR-FRET			16 ± 3.8 µM
CC(C)(C)NCCCNC(=O)c1ccnc(Br)c1	PHF23 (Homo sapiens, UniProt Q9BUL5)	methyl-lysine reader binding, inhibitor, AlphaScreen			> 100 µM
CNC(=O)C1CCN(c2ccccc2NC(=O)c2ccc(-c3cc(O)ccc3C)c(C)c2)CC1	EPHB2 (Homo sapiens, UniProt P29323)	target engagement in cells, BRET			0.0154 µM
COCCO[C@H]1CC[C@H](Nc2cc(=O)n(C)c3ccc(-c4cncs4)cc23)CC1	CD38 (Homo sapiens, UniProt P28907)	enzyme activity, inhibitor, fluorescence			> 1 µM
COc1cccc(Cc2c[nH]c3ncc(C(F)(F)F)cc23)c1	FGFR2	enzyme activity, inhibitor			0.093 µM
O=C1C[C@H](c2ccc(O)c(O)c2)c2c(cc(O)c3c2O[C@H](c2ccc(O)c(O)c2)[C@H](O)C3)O1	DPP4 (Sus scrofa, UniProt P22411)	enzyme activity, inhibitor, absorbance			181 µM
CC(C)C[C@H](NC(=O)[C@H](CCC(=O)O)NC(=O)[C@H](CC(=O)O)NC(=O)[C@H](CCC(=O)O)NC(=O)[C@H](CC(C)C)NC(=O)[C@H](CC(C)C)NC(=O)CNC(=O)[C@H](CCC(N)=O)NC(=O)[C@H](CC(C)C)NC(=O)[C@@H](N)CCC(=O)O)C(=O)O	H-2 class I histocompatibility antigen, K-D alpha chain, 29 (H2-K1, Mus musculus, UniProt P01902)	binding, competitor, radioligand competition		purified MHC, mutant peptide, together with: radiolabeled standard peptide	> 70 µM
CN(CCO)c1ccc(/C=C/C(=O)c2ccco2)cc1	Seed linoleate 13S-lipoxygenase-1	enzyme activity, inhibitor, absorbance			59.4 µM
O=C(c1ccc(I)c([N+](=O)[O-])c1)N1CCN(c2ccccc2F)CC1	SEC14 (Saccharomyces cerevisiae, UniProt P24280)	enzyme activity, inhibitor, radiometric			0.174 µM
Cc1ncccc1-c1c[nH]n(-c2ccccn2)c1=O	EGLN2 (Homo sapiens, UniProt Q96KS0)	enzyme activity, inhibitor, europium VBC binding		10 µM FeSO4, 2 mM ascorbate, together with: 20 µM 2-oxoglutarate	0.76 µM
CC(=O)NCCN(CCC(=O)NCCN(CCC(=O)NCCN(CCC(=O)NCCC(N)=O)C(=O)[C@@H](N)CCCNC(=N)N)C(=O)[C@@H](N)Cc1ccccc1)C(=O)[C@@H](N)Cc1ccccc1	HIV-1 TAR RNA	Tat/TAR complex displacement, FRET		room temperature, together with: 10 nM Tat/TAR complex	108.1 ± 0.8 µM
[H]/N=C1/NC(=O)/C(=C\c2cccc(OC)c2OC)S1	Urea transporter 2, UT-A2 isoform (SLC14A2, Homo sapiens, UniProt Q15849)	urea transport, inhibitor	HEK293 transfected with wild-type SLC14A2		6.38 ± 0.54 µM
Cc1cccc(Cn2c(CN3CCN(C(=O)C4CC4)CC3)nc3c2c(=O)n(C)c(=O)n3C)c1	ALDH2 (Homo sapiens, UniProt P05091)	enzyme activity, inhibitor			7.7 µM
Oc1ccc(CCC(O)CC(O)CCc2ccc(O)cc2)cc1 (stereo not drawn)	Dopamine beta-hydroxylase (Bos taurus, UniProt P15101)	enzyme activity, inhibitor			941 µM
Cc1ccc(-c2nc3ccc(Cl)cc3c(C(=O)NCCN(C)C)c2C)cc1	TPR (Trypanosoma brucei brucei, UniProt P39051)	inhibitor, DTNB-coupled colourimetric		together with: substrate at Km	26.5 µM
Cc1cc(O)c2c(c1)C(=O)c1cc3oc(=O)cc(-c4ccccc4)c3c(O)c1C2=O	mushroom tyrosinase	enzyme activity		together with: L-DOPA	> 100 µg/mL

A few entries again:
SMILES	target	test	test system	setting	IC50
COCCO[C@H]1CC[C@H](Nc2cc(=O)n(C)c3ccc(-c4cncs4)cc23)CC1	CD38 (Homo sapiens, UniProt P28907)	enzyme activity, inhibitor, fluorescence			> 1 µM
COc1cccc(Cc2c[nH]c3ncc(C(F)(F)F)cc23)c1	FGFR2	enzyme activity, inhibitor			0.093 µM
O=C1C[C@H](c2ccc(O)c(O)c2)c2c(cc(O)c3c2O[C@H](c2ccc(O)c(O)c2)[C@H](O)C3)O1	DPP4 (Sus scrofa, UniProt P22411)	enzyme activity, inhibitor, absorbance			181 µM
CC(C)C[C@H](NC(=O)[C@H](CCC(=O)O)NC(=O)[C@H](CC(=O)O)NC(=O)[C@H](CCC(=O)O)NC(=O)[C@H](CC(C)C)NC(=O)[C@H](CC(C)C)NC(=O)CNC(=O)[C@H](CCC(N)=O)NC(=O)[C@H](CC(C)C)NC(=O)[C@@H](N)CCC(=O)O)C(=O)O	H-2 class I histocompatibility antigen, K-D alpha chain, 29 (H2-K1, Mus musculus, UniProt P01902)	binding, competitor, radioligand competition		purified MHC, mutant peptide, together with: radiolabeled standard peptide	> 70 µM
CN(CCO)c1ccc(/C=C/C(=O)c2ccco2)cc1	Seed linoleate 13S-lipoxygenase-1	enzyme activity, inhibitor, absorbance			59.4 µM
